Measured values gathered from unrelated publications.
“And” joins repeats or separate records; there may be more than shown. ± gives the spread as reported.

Cc1noc(C)c1-c1cc(C(O)(c2ccccn2)c2ccccn2)c2nc(C3CC3)[nH]c2c1 gave a Ctau of 3.9 ng/mL (human patients, fasted, plasma; oral, 6 mg once daily, cycle 1 day 15, with: enzalutamide once daily).
For CNC(=O)c1ccc(-c2cnc3ncc(Cc4ccc5ncccc5c4)n3n2)cc1F, “patients with adverse event” read 56% (item: Fatigue, all grades; gastric cancer patients; oral, 600 mg twice daily, expansion cohort, any causality).
CNCCOC12CC3(C)CC(C)(CC(Cn4ncc(-c5ccc(N6CCc7cccc(C(=O)Nc8nc9ccccc9s8)c7C6)nc5C(=O)O)c4C)(C3)C1)C2 — result for “QTcV interval change”: 13 ms (beagle dog, male, anaesthetised; intravenous bolus, 0.03 mg/kg, 75 min; relative to: baseline).
With CC(C)Nc1nc2cc(Cl)c(Cl)cc2n1[C@H]1O[C@@H](CO)[C@H](O)[C@@H]1O the Q/F was 1.24 L/h (population PK model; human; oral, 70 kg body weight).
Under “subjects with TEAE”, CC(C)(C(=O)N1CCOc2c(C#N)cncc2C1)C(F)F is recorded as 0% (item: general and administration site disorders; human, both sexes; oral, 20 mg once daily, 14 days, multiple ascending dose).
Cc1nc(-c2ccc(OCC(C)C)c(C#N)c2)sc1C(=O)O has an AST of 174 U/L and 185 U/L and 198 U/L and 172 U/L and 177 U/L (KM mouse, chronic hyperuricaemia model, serum; dose not given).
With COc1cc2c3c(n(CCCN4CCOCC4)c(=O)c2cc1OC)-c1cc2c(cc1C3=O)OCO2 the CL was 41.1 ± 25 L/h/m² (beagle dog, male, plasma; intravenous infusion, 50 mg/m^2, 1 h infusion, vehicle 1).
With Oc1ccc(/C=C/c2cc(O)cc(O)c2)cc1 the calcium was 10.7 mg/dL and 10.3 mg/dL and 10.4 mg/dL (rat, azoxymethane-injected, blood at sacrifice; 10 mg/kg).
Cc1ccc(O)c(-n2nc3ccccc3n2)c1: “mean daily dermal uptake” 1390 ng/kg body weight/day (exposure assessment; human, age 1-2 years; sunscreen).
The Tlast of [H]/N=C(/N)c1ccc(NCc2nc3cc(C(=O)N(CCC(=O)O)c4ccccn4)ccc3n2C)cc1 is reported as 36 h (healthy human, plasma; oral, 75 mg dabigatran etexilate, alone, median).
For CC(C)c1nc(N(C)S(C)(=O)=O)nc(-c2ccc(F)cc2)c1/C=C/[C@@H](O)C[C@@H](O)CC(=O)O, the plasma concentration was 717 ng/mL (Wistar albino rat, both sexes, plasma; oral, 20 mg/kg, 3 h).
CNc1ccc(-c2nc3ccc(O)cc3s2)cc1 [carbon-11 labelled] gave an SUV of 0.607 ± 0.163 (ex vivo biodistribution; B6SJL mouse, normal, lungs; intravenous, 30 min).
For CSc1nc(C)c(Cl)c(O)n1, the maximum haemolysis was 7% (sheep erythrocytes; 1 h, pH 7.5).
CCCCC1=NC2(CCCC2)C(=O)N1Cc1ccc(-c2ccccc2S(=O)(=O)Nc2noc(C)c2C)c(COCC)c1 has an AUC(0-inf) of 311000 ng·h/mL (healthy adult volunteers, plasma; oral, 1600 mg, single dose, fed, crushed tablet).
CN1C(C(=O)Nc2ccc(F)cn2)=C(O)c2ccccc2S1(=O)=O has a pKa (acidic) of 4.5.
CO[C@@H]1[C@H](O)[C@@H](CO)O[C@H]1n1c([N+](=O)[O-])nc2c(=O)[nH]c(N)nc21 — result for “nucleoside remaining fraction”: 0.899 (depurination, RP-HPLC; citrate-phosphate buffer 0.5 mM; 110 min, pH 2, 37 °C).
Under “participants with hypotension”, C[C@@H](N)C1CCN(S(=O)(=O)c2cccc3cnccc23)CC1 is recorded as 0% (healthy volunteers; 75 mg, fasted).
Cc1c2oc3c(C)ccc(C(=O)N[C@@H]4C(=O)N[C@H](C(C)C)C(=O)N5CCC[C@H]5C(=O)N(C)CC(=O)N(C)[C@@H](C(C)C)C(=O)O[C@@H]4C)c3nc-2c(C(=O)N[C@@H]2C(=O)N[C@H](C(C)C)C(=O)N3CCC[C@H]3C(=O)N(C)CC(=O)N(C)[C@@H](C(C)C)C(=O)O[C@@H]2C)c(N)c1=O: “maximum plasma concentration” 9.1 µg/L (LC-MS; children with cancer, plasma; dose not given, 6 h).
With O=C(O)CCC(=O)O.[2H]C([2H])([2H])Oc1cc(C)c2[nH]ccc2c1CN1CC[C@@H](C2CC2)C[C@H]1c1ccc(C(=O)O)cc1 the CLss/F was 2.29 L/h (human, plasma; 100 mg twice daily, day 10, multiple ascending dose).
COc1ccc([C@@H](O)c2cc(-c3ncnc4cc(N5CCOCC5)ccc34)c(F)cc2Cl)nn1 gave an investigations TEAE of 0% (locally advanced rectal cancer patients; 50 mg, with: capecitabine and radiotherapy).
With O=C(c1cccnc1-c1ccncc1)N1CCC(O)(Cc2ccccc2)CC1 the AUClast/dose was 9.48 ng·h/mL/mg (healthy Japanese adults, plasma; oral, 1200 mg single dose).
With Cc1cc(NC(=O)c2cccc(NC(=O)/C=C/CN(C)C)c2)ccc1Nc1nccc(-c2cccnc2)n1 the remaining compound was 87.8% (primary hepatocytes, rat Wistar male; 1 µM, 20 min).
With Cc1ccc2ccc(C(=O)O)c(O)c2n1 the pKa (acidic) was 5.5.
CCOc1c([C@H](C)n2nc(C)c3c(N)ncnc32)cc(Cl)c(F)c1[C@@H]1CNC(=O)C1: “share of ECG observations” 0% (item: QTcF > 500 ms; previously treated B-cell malignancy; oral, dose not given, baseline QTcF ≤450 ms, all doses).
For COc1cc2c(CCNC(C)=O)c[nH]c2cc1O, the specific activity was 128 ± 6.13 pmol/min/mg (sulfation, substrate; pooled human liver cytosol; 50 µM, 30 min, with: 50 mM NaF).
O=C1Cc2cc(CCN3CCN(c4nsc5ccccc45)CC3)c(Cl)cc2N1: “mean blood pressure” 23 ± 0.3 mmHg (male Hartley guinea pigs, anaesthetized; intravenous, 1 mg/kg over 10 min, after infusion).
With COc1ccc(C[C@@H](C)[C@@H](C)Cc2ccc(OC)c(OC)c2)cc1OC the Cmax was 1610 ± 387 ng/mL (beagle dog male, plasma; oral, 100 mg/kg/day, day 1).
O=C(O)CCCOc1ccc([18F])cc1-c1cc(-c2ccccc2C(F)(F)F)n(-c2ccccc2)n1 gave a radioactivity uptake of 1.15 ± 0.09 SUV (gamma counting; male ddY mice, muscle; intravenous, 2.1 MBq, 30 min).
Cc1ccc(C(=O)N(CCCN)C(c2nc3snc(C)c3c(=O)n2Cc2ccccc2)C(C)C)cc1 (stereo not shown): “grade ≥3 hyperbilirubinemia patients” 0% (human patients; intravenous, 7 mg/day).
The concentration of COC(=O)[C@@H]1[C@H]2C[C@H]3c4[nH]c5ccccc5c4CCN3C[C@@H]2CC[C@@H]1O is reported as 1100 nM (rat, plasma; intraperitoneal, 1 mg/kg, 1.5 h).
c1ccc(-c2nc(N3CCC(c4ccccn4)C3)c3ccccc3n2)nc1 (stereo not shown) has an AUC(0-last) of 6790 ng·h/mL (female Balb/c mice, plasma; intravenous, 2 mg/kg, mean, with: ABT 2 h prior).
O=C(Nc1nc2cccc(-c3ccc(CN4CCS(=O)(=O)CC4)cc3)n2n1)C1CC1: “treatment-emergent adverse events” 0% (item: regurgitation; rheumatoid arthritis patients; oral, 75 mg once daily, 4 weeks, any relatedness).
With C=CC(=O)Nc1cc(Nc2nccc(-c3cn(C)c4ccccc34)n2)c(OC)cc1N(C)CCN(C)C the CLss/F was 14.5 L/h (human patients; oral, cycle 3 day 1, monotherapy, mean).
With C[Si](C)(C)O[Si](C)(C)C the log KOW was 5.06 (1-octanol/water; 7-48 µg/L in water, 20.0 °C).
N#Cc1ccc2c(c1)[C@H]1CCCN(C(=O)c3ccc4[nH]cnc4c3)[C@H]1C2 has an SHBG level of 34.9 nmol/L (human females; 360 mg, day 7).
Under “subjects with any grade 2 TEAE”, Cc1cc(-c2nccc3c2ccn3CC(=O)Nc2ccc(-c3cnccn3)cn2)ccn1 is recorded as 0% (human; SAD part, single 7 mg dose).
COc1cc2[nH]c(C)c(-c3ccc(C(F)(F)F)cc3)c(=O)c2cc1Cl has a Papp of less than 5 ×10⁻⁶ cm/s (PAMPA; pH 7.4).
Under “papular rash incidence”, Cc1cc(Nc2cc3ncccc3c(N[C@@H]3C[C@H]4CC[C@@H](C3)N4CCC#N)n2)n[nH]1 is recorded as 0% (healthy human subjects; oral, 10 mg, 14 days, multiple ascending dose).
Cc1cc(NC2CCN(C(=O)OC3CCN(C(=O)/C=C/CN(C)C)C3)CC2)n2ncc(C(C)C)c2n1 (stereo not shown) — result for “patients with TEAE”: 0% (CTCAE v4.0, item: Hypotension; patients with advanced solid tumours; oral, dose not given, TIW, grade 3 or higher).
For Cc1ccc([C@@H]2O[C@H](CO)[C@@H](O)[C@H](O)[C@H]2O)cc1Cc1ccc(-c2ccc(F)cc2)s1, “urinary chloride excretion change” read -4.5 mEq (Japanese type 2 diabetes patients; 200 mg, day 6, 24 h urine collection; relative to: baseline).
CCN1/C(=C/C(C)=O)Sc2ccc(F)cc21 — result for “QTc interval (Bazett)”: 330 ± 11 ms (cynomolgus monkey; oral, 10 mg/kg, 6 h post-dose).
C#Cc1cccc(Nc2ncnc3cc(OCCOC)c(OCCOC)cc23)c1 has a CL/F decrease of 31% (UPLC-MS/MS; Wistar rat, male, plasma; oral, four weeks, with: CA 1000 mg/kg, high dose; relative to: control).
CC(C)NCC(O)COc1cccc2ccccc12 (stereo not shown): “mean blood pressure” 36 ± 0.2 mmHg (male Hartley guinea pigs, anaesthetized; intravenous, 3 mg/kg over 10 min, after infusion).
The unbound C24h of COCc1cc(C(=O)Nc2cc([C@H]3CC[C@@H](OC(=O)NC(C)C)C3)[nH]n2)n(C)n1 is reported as 373 nM (OVCAR-3 xenograft, NOD/SCID gamma mice, plasma; oral, 175 twice daily, tumour growth inhibition study).
CC12CC3(C)CC(C(=O)O)(C1)CC(C(=O)O)(C2)C3 gave a maximum haemolysis of 2.8% (sheep erythrocytes; 1 h, pH 7.5).
Under “Irwin test score”, O=C1NCCc2nc(OCc3cccc(F)c3)ccc21 is recorded as 0 (item: Catalepsy; Sprague-Dawley rat male; oral, 100 mg/kg, 4 h; direction not given).
For CCCCc1oc2ccccc2c1C(=O)c1cc(I)c(OCCN(CC)CC)c(I)c1, “mean blood pressure” read 36 ± 0.1 mmHg (male Hartley guinea pigs, anaesthetized; intravenous, 10 mg/kg group, baseline before infusion).
CC[C@@H]1CN(C(=O)NCC(F)(F)F)C[C@@H]1c1cnc2cnc3[nH]ccc3n12 gave a Q/F of 3.22 L/h (population PK model; human, plasma; oral, outliers excluded).
For CC(C)[C@@H](CS(=O)(=O)C(C)C)N1C(=O)[C@@](C)(CC(=O)O)C[C@H](c2cccc(Cl)c2)[C@H]1c1ccc(Cl)cc1, the AUC(0-inf) was 2450 ± 263 ng·h/mL (FVB mice Abcb1a/b Abcg2 knockout, brain; oral, 20 mg/kg).
CC(C)n1c(Nc2cccnc2)nc2cnc(Nc3ccc(N4CCN(C)CC4)cc3)nc21: “subjects with adverse event” 0% (item: oral ulcers; healthy male subjects; oral, 100 mg, study, with: gemfibrozil).
Under “apparent volume of distribution”, CN(CC#N)C(=O)C[C@H](Nc1nc2ccccc2[nH]1)c1cccc(C(F)(F)F)c1 is recorded as 70.6 ± 12.8 L (human; intravenous infusion, 1.5 mg/kg, 1 mg/mL formulation).
The Cmax of Cn1c(C(F)(F)F)cc(=O)n(-c2cc(Oc3cccnc3OCC(=O)O)c(Cl)cc2F)c1=O is reported as 13100 ng/mL (beagle dog, female, plasma; oral capsule, 1000 mg/kg/day epyrifenacil, day 1, 90-day study).
CCC(CC)C(=O)Oc1cccc(C(O)CCN)c1.O=CO (stereo not shown): “ERG a-wave amplitude” 72 µV and 30 µV and 34 µV and 76 µV and 48 µV and 31 µV (scotopic ERG; BALB/cJ mice; intraperitoneal, 10 mg/kg, 4 h dark adaptation, with: 10,000 lx photobleach, 10 min).
For CNC(=O)c1ccc(-c2cnc3ncc(Cc4ccc5ncccc5c4)n3n2)cc1F, “Vomiting dose reduction/interruption” read 0% (Japanese patients; oral, 400 mg, grade 3/4).
COc1ccc(CNc2nc(-c3ccc(C(=O)O)cc3)nc3c2c2ccccc2n3C)cc1Cl gave a body weight of 21.6 g and 22.6 g and 23.1 g and 23.8 g (NSG mice; dose not given, day 10 of treatment).
CC1(C)CCC(CN2CCN(c3ccc(C(=O)NS(=O)(=O)c4ccc(NCC5CCOCC5)c([N+](=O)[O-])c4)c(Oc4cnc5[nH]ccc5c4)c3)CC2)=C(c2ccc(Cl)cc2)C1 — result for “C6 fold change”: 1 (patients; oral, dose not given, 6 h, with: triazole antifungals; relative to: without triazoles).
C=CC(=O)NC1CCN(c2ncc3ncnc(Nc4ccc(Oc5ccc6c(c5)ncn6C)c(C)c4)c3n2)CC1 has a maximum bioaccessibility of 25.5 ± 2.9 % recovery (tiny-TIM gastrointestinal model; 240 mg, fasted state).
CC1=NN(c2ccc(C)c(C)c2)C(=O)/C1=N\Nc1cccc(-c2cccc(C(=O)O)c2)c1O has an Imax of 28.3 µM (healthy subjects, plasma; oral, 75 mg daily).

Some of these lines once more:
Under “Irwin test score”, O=C1NCCc2nc(OCc3cccc(F)c3)ccc21 is recorded as 0 (item: Catalepsy; Sprague-Dawley rat male; oral, 100 mg/kg, 4 h; direction not given).
For CCCCc1oc2ccccc2c1C(=O)c1cc(I)c(OCCN(CC)CC)c(I)c1, “mean blood pressure” read 36 ± 0.1 mmHg (male Hartley guinea pigs, anaesthetized; intravenous, 10 mg/kg group, baseline before infusion).
CC[C@@H]1CN(C(=O)NCC(F)(F)F)C[C@@H]1c1cnc2cnc3[nH]ccc3n12 gave a Q/F of 3.22 L/h (population PK model; human, plasma; oral, outliers excluded).
For CC(C)[C@@H](CS(=O)(=O)C(C)C)N1C(=O)[C@@](C)(CC(=O)O)C[C@H](c2cccc(Cl)c2)[C@H]1c1ccc(Cl)cc1, the AUC(0-inf) was 2450 ± 263 ng·h/mL (FVB mice Abcb1a/b Abcg2 knockout, brain; oral, 20 mg/kg).
CC(C)n1c(Nc2cccnc2)nc2cnc(Nc3ccc(N4CCN(C)CC4)cc3)nc21: “subjects with adverse event” 0% (item: oral ulcers; healthy male subjects; oral, 100 mg, study, with: gemfibrozil).
Under “apparent volume of distribution”, CN(CC#N)C(=O)C[C@H](Nc1nc2ccccc2[nH]1)c1cccc(C(F)(F)F)c1 is recorded as 70.6 ± 12.8 L (human; intravenous infusion, 1.5 mg/kg, 1 mg/mL formulation).
The Cmax of Cn1c(C(F)(F)F)cc(=O)n(-c2cc(Oc3cccnc3OCC(=O)O)c(Cl)cc2F)c1=O is reported as 13100 ng/mL (beagle dog, female, plasma; oral capsule, 1000 mg/kg/day epyrifenacil, day 1, 90-day study).
